Assay results gathered from unrelated publications.
Numbered parts are unrelated; each lists some results of a single study. Changes are numbered by the printed parent chain.

Study 1 — method: RNA Bind-n-Seq; form: RNA; medium: in vitro; tested at: 365 nM; baseline: no-protein control; reading: higher = stronger binding
Target: RNA binding protein fox-1 homolog 2, RRM domain, GST-SBP tag (RBFOX2, Homo sapiens, UniProt O43251-10, residues 100-194)
Notes: natural RNA segment, single round, ends assumed
Constant ends, left off below: GGGAGUUCUACAGUCCGACGAUC … UGGAAUUCUCGGGUGCCAA
Residues (chain): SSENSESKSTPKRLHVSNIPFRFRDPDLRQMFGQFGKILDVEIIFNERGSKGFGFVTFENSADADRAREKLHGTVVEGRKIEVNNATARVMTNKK
Strand | RBNS enrichment (R)
UUAAAGGGGGUAUGUGAUAAUAGAGGGCUGGAAUUUAAACCUGUAUUUAAAAAAAAGAAUCACCAAAUCUAUUUGAAAACAAGUCGAUUUGUAUUAUGCUGGAAUUUUUU | 3.95
UAUGUCCGGGAUCUGGAUCAGAUUCUGGGGGCUCAGAAACGUCGGUUGCAUUGAGCUACUGGGGGUAGGAGUUCCAACAUUUAUGUCCAGAGCAACUUCCAGCAAGGCUG | 0.271
GCAGCUACAUUUGAAAGUGAUAGAAUAAAGAGAUUUUAAUGAGUUAUCACUUUUUCAGCUGAUAUAUUCAUUUUAAUGGCUUUUUUGAAAGUUCCUUUUUCAUGAACACA | 0.476
ACGUCUUCAUUCAUUGGAGUAACUGGUUUAGGCUUUCCAGUUUGGAAAAGGAGCAGAGAGCUGUCCAUCUGGAUUGAUGGAAGAAAAGAGAACCUCAUCCAUGCCUGGAG | 0.284
UUCUUCUCCCUUAGGGAGGCUCUUGAAGGAGCAGGAGGUACAGUACUGGGUAGCAGUCUGGCCCUCCUGUCGUCUGGUUGGUGUUGGGGCCUCCAGCCAGGGCCCUCUAG | 0.283
UUUUUUUAGAUUAUUUGGUGUACGGUUUUGCUCACAACAAUAGGUGGAAGUUGCUAGUGCAGUCUUGGUCUGAUGGCUGUGUGCAUCGCACAUUCGGCUUGGUGAAAUCC | 0.454
AUCUCCAUCUGUCAACAGGGGCGUGAGGUCCCAGGAAGUGGCCAAAAGCUAGACAGAUCCCCGUUCCUGACAUCACAGCAGCCUCCAACACAAGGCUCCAAGACCUAGGC | 0.369
UCAAUUACCCAUCACAUAAAUAUGAAACAUUUAUCAGAAAUGUUGCCAUUUUAAUGAGAUGAUUUUCUUCAUCUCAUAAUUAAAAUACCUGACUUUAGAGAGAGUAAAAU | 0.394
GGUGGGGCGGGAACACACAAAUCCAGCCCCCUUUCUCCUGGCUCCCUGCUCUGGCCCUGCCCCAGAGCUGUGACCCUUGUCCUUUGACCCAGCCUCUCAUUUCCAUCUCU | 0.412
GUGGGUGUUUGCCGGCCAGAUCUUUCCUGGCAUGCGGACUGUGAGGCAAAGCACGGGUGAAGGUAGGCGCUAAAGGCUUUGGGCUAAAGCCAGCACGCGGUUCUGUGCUA | 1.72
UUGUCAUGAUUGCAGACUACAGAUCUGCUUUUUGAAAUGAAAUUUAAACAUUAAAAAUGGAACUGUGUUCUUAGACUCUUUACUGAAGGUGAAACCGUAGUGAAAGCUCC | 0.437
CUGUGAUUAGGUACAAGCUUACCUUUUAGGGUAGAAAAAGAAAGAUCAUUUGAAAAAUGUAUCUAAAAUAAUCCAGAGAACAUAAUGUUUGUCUUGGUCUGAUAAUGAUA | 0.342

Study 2 — method: competition protein-binding microarray; form: double-stranded DNA, one strand shown; medium: in vitro; tested at: 2 µM; with: Pho4 competitor, 0.05 µM; reading: higher = stronger binding; constant ends, left off below: … GTCTTGATTCGCTTGACGCTGCTG
Target: Centromere-binding protein 1, full length, His-tagged (CBF1, Saccharomyces cerevisiae, UniProt P17106, residues 1-351)
UniProt P17106, sequence (whole entry, looked up): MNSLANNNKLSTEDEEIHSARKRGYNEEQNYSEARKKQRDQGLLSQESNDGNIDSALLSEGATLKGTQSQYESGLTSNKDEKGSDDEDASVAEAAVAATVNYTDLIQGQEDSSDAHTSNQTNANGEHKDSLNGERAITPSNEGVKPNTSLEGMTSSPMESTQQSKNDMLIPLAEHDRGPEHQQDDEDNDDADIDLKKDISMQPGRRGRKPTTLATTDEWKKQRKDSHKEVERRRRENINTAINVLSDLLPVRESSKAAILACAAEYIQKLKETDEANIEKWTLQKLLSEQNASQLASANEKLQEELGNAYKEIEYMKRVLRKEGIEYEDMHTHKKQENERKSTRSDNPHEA
Notes: whole 60-bp probe, lowest competitor level
Strand | fluorescence intensity [a.u.]
CAAATCTCGGAATTTATCATGACGGATTACATAACA | 101
CGCCATTGTATGAATCTCGTGCCAGTCCCTTTTTAA | 166
TGTATAAATGTCCGTCACGTGGCCGTCTGTCTCTTA | 6900
CAGCGAGAACATCACCACGGGCTATATAAATGGAAA | 88.5
ATCAGATCAAACTGGCACGTGCCAGATTTGGTTTAG | 3560
CTTTTAACTTGCCTGCATGTGTGGAGTTACAAATTA | 88.9
GTCTTGTCTCATTGTCACACCACTTTCCCCACTTCA | 133
CTCAGTCTCTGGAAAAACGTGCTTTTTAACGGTTAT | 249
AAATGTTGCTGCATAACCGTGCGATAAAACCTCATA | 77.5
CTTTCCCGATCTTGCTGCGTGGGTGTAGCACATTTG | 75.2
ATGAAATGCTGGAATCACCTGACTCACAAAACTGGG | 1690
TAAGTGTGTCCCACACTCGTGGCAATTTTTCTTGAT | 84.6
CCCAATTTTTAAAAACACGTGCCGACCAGGATTGGG | 2900
AAAGCGGTAATTTGTTCAGTGGGTGCAGATATCTAT | 90.6
TTCACTTCGGGTTTTGCCGTGCCGAACTTTTCAGAT | 67.6
TGCGCAACAACTTGTGATGTGGGTGTATGTCTAGAA | 79.1
CGTAGGGCAATTTTTAGCGTGATGGATAAGGGCGCA | 86.1
GACACTTCTTTGTATAACGTGACGGTGGTGTCGCCA | 411
TGCGCAACAACTTGGCGGGTGGGTGTATGTCTAGAA | 62.2
AGTTGTTAGATAAAGCACGTGTAGCATTGTACAATT | 1810
CTTAAAAGTCTGGAAGGCGTGCTAATTGTCCTTTTA | 74.2
CTAACGAAGGTTTGTCACATAACTTACAAGCCAAGT | 81.5

Study 3 — method: aptamer microarray, sandwich; form: DNA with 2'F-ANA; medium: in vitro; tested at: 200 nM; with: Cy3 exosite-II aptamer, 400 nM; reading: higher = stronger binding; strand: GGTTGGTGTGGTTGG
Target: Prothrombin, mature alpha-thrombin (F2, Homo sapiens, UniProt P00734)
Notes: whole 15-mer aptamer, many near background
Modification | mean fluorescence intensity [a.u.]
2'F-ANA at 1 2 3 4 5 8 10 12 13 14 | 46.2
2'F-ANA at 3 4 5 8 9 11 15 | 84.8
2'F-ANA at 4 5 14 15 | 43.2
2'F-ANA at 3 5 6 7 8 9 10 11 12 13 14 | 58.1
2'F-ANA at 4 5 9 11 12 14 | 46
2'F-ANA at 1 2 4 5 7 9 10 15 | 64.3
2'F-ANA at 1 4 6 8 9 10 11 12 13 14 | 49.3
2'F-ANA at 3 4 6 7 12 13 14 15 | 304
2'F-ANA at 3 4 6 7 8 9 12 13 14 15 | 247
2'F-ANA at 1 2 6 7 9 12 13 | 203
2'F-ANA at 1 3 4 5 6 7 8 12 13 | 85.5
2'F-ANA at 1 2 9 | 194
2'F-ANA at 1 10 15 | 59.5
2'F-ANA at 3 5 | 144
2'F-ANA at 2 5 6 9 11 14 | 91.5
2'F-ANA at 4 6 7 9 12 13 15 | 275
2'F-ANA at 1 4 7 8 10 11 12 13 | 54.4
2'F-ANA at 5 6 7 8 9 11 12 14 | 51.5
2'F-ANA at 1 2 4 6 7 8 10 11 15 | 52.9
2'F-ANA at 1 3 6 7 8 11 12 13 15 | 443
2'F-ANA at 2 3 6 8 9 10 12 13 15 | 335

Study 4 — target: NFE2L3, bZIP domain (human); method: DHFR protein complementation; medium: yeast; baseline: wild-type JUN-FOS pair; reading: higher = stronger binding
Notes: single substitutions, most at no-binding floor
Parent: JUN, bZIP domain (human); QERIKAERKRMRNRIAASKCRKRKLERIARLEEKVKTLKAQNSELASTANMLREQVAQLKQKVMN; partner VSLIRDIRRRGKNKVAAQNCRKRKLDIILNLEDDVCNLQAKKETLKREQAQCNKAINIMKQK
Change | binding fitness
L31T | -1.54 natural log
L45P | -1.53 natural log
Q41L | -1.47 natural log
L45C | -1.53 natural log
E33F | -1.5 natural log
L38V | -1.45 natural log
V35S | -1.57 natural log
I28R | -1.58 natural log
S43I | -1.3 natural log
S43G | -1.43 natural log
R30L | -1.51 natural log
T37G | -1.49 natural log
L38I | -1.42 natural log

Study 5 — method: RNA Bind-n-Seq; form: RNA; medium: in vitro; tested at: 1 µM; notes: whole 134-nt RNA, ends assumed; with: 150 mM KCl; baseline: input library; reading: higher = stronger binding
Target: Ras GTPase-activating protein-binding protein 1, RRM domain (G3BP1, Homo sapiens, UniProt Q13283)
UniProt Q13283, sequence (whole entry, looked up): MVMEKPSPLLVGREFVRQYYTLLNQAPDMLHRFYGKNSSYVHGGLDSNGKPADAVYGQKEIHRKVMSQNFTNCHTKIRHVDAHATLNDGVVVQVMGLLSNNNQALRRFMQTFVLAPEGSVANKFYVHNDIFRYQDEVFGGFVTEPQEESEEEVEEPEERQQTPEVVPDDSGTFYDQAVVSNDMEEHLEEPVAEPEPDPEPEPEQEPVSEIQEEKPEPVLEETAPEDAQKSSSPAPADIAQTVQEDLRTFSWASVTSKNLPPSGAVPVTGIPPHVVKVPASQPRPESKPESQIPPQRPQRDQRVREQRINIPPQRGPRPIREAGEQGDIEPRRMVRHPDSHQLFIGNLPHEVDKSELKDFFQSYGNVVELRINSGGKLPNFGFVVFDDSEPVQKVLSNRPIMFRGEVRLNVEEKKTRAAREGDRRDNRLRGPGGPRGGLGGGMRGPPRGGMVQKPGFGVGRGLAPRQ
Constant ends, left off below: GGGAGUUCUACAGUCCGACGAUC … UGGAAUUCUCGGGUGUCAAGG
Strand | log2 enrichment
CACAGACAACACGCACCCACACAGACACAGAGGGAAGGGAUUGGGAUGGGGACAGGGUGCACAGCAGGGCGGGGUAGGACCCCAGCCCCU | -0.0458
CCUGUGCUACACAUCGUAUGUACCGAAUCGGCCCCCCGGGGCCCCCCGGGGCCCCCCGGGAAAGUAUUAUGUUACGCCGUUCGGAUCUGC | -0.702
AGUCCUGUGCUACACAUCGUAUGUACCGAAUCAAACCCCCCCAAACCCAAAUUUAAAAAAGUAUUAUGUUACGCCGUUCGGAUCUGCACU | -0.141
UGGGAGGUGGAUUUUGUUUAUUUUUUUAGCUCAUUUCCAGGGGUGGGAAUUUUUUUUUAAUAUGUGUCAUGAAUAAAGUCGUUUUUGAAA | 1.54
CUCAAGUCCUGUGCUACACAUCGUAUGUACCGAAUCGGGGUGGGUGGGGUGGGAAAGUAUUAUGUUACGCCGUUCGGAUCUGCACUUCCA | -0.0764
CCUCAAGUCCUGUGCUACACAUCGUAUGUACCGAAUCGGGGCGGGCGGGGCGGAAAGUAUUAUGUUACGCCGUUCGGAUCUGCACUUCCA | 0.083
UGGAGAGGGAAGUCCCAAUGGUGCUAGAAUGGUGCUGCAGUGGCAGAAGACGGCUCACAAGUGAGGUCUGGAAGAACAACAGGGAAGACA | 0.0514
AAGUCCUGUGCUACACAUCGUAUGUACCGAAUCGGAAAAGGAAAAGGGGAAAAGGGAAAGUAUUAUGUUACGCCGUUCGGAUCUGCACUU | -0.221
CUCAAGUCCUGUGCUACACAUCGUAUGUACCGAAUCGGGAAAGGGAGGGAGGGAAAGUAUUAUGUUACGCCGUUCGGAUCUGCACUUCCA | 0.814
ACCAUGCAGGUGGGCAUCUUUGGGAAGUGGGGCAAGGGGGGGAUAGGGAGGGGGGUAACACUUUGGGGACAGGUGGUCCCAGGUCGUUUC | 0.853
UCCUCAAGUCCUGUGCUACACAUCGUAUGUACCGAAUCGGGGUGGUGGUGGAAAGUAUUAUGUUACGCCGUUCGGAUCUGCACUUCCAGC | -0.249
UAGUCCAGCAUCAAGAUUCGCCGGCCUGGAUACAAAUCAGCGACUUACAGCUUUAGCUGAAGACAGACCGUUAUUUGAUGGACCUAGUAG | -0.243
UCCUGUGCUACACAUCGUAUGUACCGAAUCGGGGAAAAAAAGGGGAAAAAGGGGAGGGGAAAGUAUUAUGUUACGCCGUUCGGAUCUGCA | 0.782
AAGUCCUGUGCUACACAUCGUAUGUACCGAAUCGGGGUUUGGGUUUGGGGUUUGGGAAAGUAUUAUGUUACGCCGUUCGGAUCUGCACUU | 0.459

Study 6 — organism: Saccharomyces cerevisiae; observed: binding; method: competitive growth deep sequencing; form: peptide; strain: cyclin D3-Cln2 fusion strain; tested at: concentration not given; notes: tiling library, Cln2 subtracted; reading: direction not given
Molecule | growth enrichment score
QDYERRLLRQIVIQNE | -0.454
PKNAKRNLSSEFAN | -0.443
TSSAQRRLEIPSGGAD | -0.199

Some of these lines once more (study 1):
Strand | RBNS enrichment (R)
UUCUUCUCCCUUAGGGAGGCUCUUGAAGGAGCAGGAGGUACAGUACUGGGUAGCAGUCUGGCCCUCCUGUCGUCUGGUUGGUGUUGGGGCCUCCAGCCAGGGCCCUCUAG | 0.283
UUUUUUUAGAUUAUUUGGUGUACGGUUUUGCUCACAACAAUAGGUGGAAGUUGCUAGUGCAGUCUUGGUCUGAUGGCUGUGUGCAUCGCACAUUCGGCUUGGUGAAAUCC | 0.454
AUCUCCAUCUGUCAACAGGGGCGUGAGGUCCCAGGAAGUGGCCAAAAGCUAGACAGAUCCCCGUUCCUGACAUCACAGCAGCCUCCAACACAAGGCUCCAAGACCUAGGC | 0.369
UCAAUUACCCAUCACAUAAAUAUGAAACAUUUAUCAGAAAUGUUGCCAUUUUAAUGAGAUGAUUUUCUUCAUCUCAUAAUUAAAAUACCUGACUUUAGAGAGAGUAAAAU | 0.394
GGUGGGGCGGGAACACACAAAUCCAGCCCCCUUUCUCCUGGCUCCCUGCUCUGGCCCUGCCCCAGAGCUGUGACCCUUGUCCUUUGACCCAGCCUCUCAUUUCCAUCUCU | 0.412
GUGGGUGUUUGCCGGCCAGAUCUUUCCUGGCAUGCGGACUGUGAGGCAAAGCACGGGUGAAGGUAGGCGCUAAAGGCUUUGGGCUAAAGCCAGCACGCGGUUCUGUGCUA | 1.72
UUGUCAUGAUUGCAGACUACAGAUCUGCUUUUUGAAAUGAAAUUUAAACAUUAAAAAUGGAACUGUGUUCUUAGACUCUUUACUGAAGGUGAAACCGUAGUGAAAGCUCC | 0.437
CUGUGAUUAGGUACAAGCUUACCUUUUAGGGUAGAAAAAGAAAGAUCAUUUGAAAAAUGUAUCUAAAAUAAUCCAGAGAACAUAAUGUUUGUCUUGGUCUGAUAAUGAUA | 0.342
